Measured values collected from several papers.
Lines come from different studies, so protocols differ. ± marks the error that the study gave.
UCHL1: Ubiquitin carboxyl-terminal hydrolase isozyme L1 (UCHL1, Homo sapiens, UniProt P09936)
Sequence of UniProt P09936 (whole entry, looked up): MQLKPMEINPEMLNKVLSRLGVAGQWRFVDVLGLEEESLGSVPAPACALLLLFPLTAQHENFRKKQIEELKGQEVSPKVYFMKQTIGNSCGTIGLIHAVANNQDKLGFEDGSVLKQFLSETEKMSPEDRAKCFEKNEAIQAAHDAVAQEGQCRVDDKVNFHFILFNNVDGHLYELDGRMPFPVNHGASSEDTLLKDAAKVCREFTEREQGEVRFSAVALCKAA

`O=C1CC[C@H](N2Cc3cc(N4CCN(CC5CCN(c6ccc([C@@H]7c8ccc(O)cc8CC[C@@H]7c7ccccc7)cc6)CC5)CC4)ccc3C2=O)C(=O)N1` — result for “maximum achievable concentration”: 40 µM (HBSS buffer).
`COc1ccnc(C(=O)N[C@@H](CO)C(=O)O)c1OCOC(=O)C(C)C`: “maximum share of applied radioactivity” 77 % AR (sterile natural water, irradiated; photolysis product).
`CC(C)/N=C(\N)c1ccc(NC(=O)c2ccc(C(=O)Nc3ccc(/C(N)=N/C(C)C)cc3)cc2)cc1` gave a maximum haemolysis of 1.99% (sheep erythrocytes; 1 h, pH 7.5).
`COCCOc1nc(N)c2[nH]c(=O)n(Cc3ccc(C(=O)O)cc3)c2n1` gave a maximum solubility of 100 µM (unconjugated).
`CC#CC(=O)N1CCOc2ccccc2C1C(=O)NC(C)(C)C` (centres unmarked) has a labelling of 17.5% (UCHL1; covalent, intact protein LC-MS; 12.5 µM).
`O=C(O)c1cc(Br)ccc1F` gave a maximum haemolysis of 2.5% (sheep erythrocytes; 1 h, pH 7.5).
`CC(C)c1nc(CN(C)C(=O)N[C@H](C(=O)N[C@@H](Cc2ccccc2)C[C@H](O)[C@H](Cc2ccccc2)NC(=O)OCc2cncs2)C(C)C)cs1`: “maximum DcNP-dissociated fraction” 13% (Macaca nemestrina, plasma; intravenous, dose not given, time-averaged).
Under “maximum share of applied radioactivity”, `C[C@H]1C=C(Cc2ccccc2)C(=O)O1` is recorded as 69.3 % AR (sterile natural water, irradiated; photolysis product).
`Cc1cccc(C)c1OCC(=O)N[C@@H](Cc1ccccc1)[C@@H](O)C[C@H](Cc1ccccc1)NC(=O)[C@H](C(C)C)N1CCCNC1=O` — result for “maximum DcNP-dissociated fraction”: 2.1% (Macaca nemestrina, plasma; intravenous, dose not given, time-averaged).
For `Cc1c2oc3c(C)ccc(C(=O)N[C@@H]4C(=O)N[C@H](C(C)C)C(=O)N5CCC[C@H]5C(=O)N(C)CC(=O)N(C)[C@@H](C(C)C)C(=O)O[C@@H]4C)c3nc-2c(C(=O)N[C@@H]2C(=O)N[C@H](C(C)C)C(=O)N3CCC[C@H]3C(=O)N(C)CC(=O)N(C)[C@@H](C(C)C)C(=O)O[C@@H]2C)c(N)c1=O`, “maximum plasma concentration” read 6.6 µg/L (LC-MS; children with cancer, plasma; dose not given, 8 h).
The maximum haemolysis of `CS(=O)(=O)c1cccc(-c2nnc(NC(=O)c3ccc(-c4ccccc4)cc3)o2)c1` is reported as 4.56% (sheep erythrocytes; 1 h, pH 7.5).
Under “maximum supersaturated concentration”, `Cc1cc(C#N)cc(C)c1Oc1nc(Nc2ccc(C#N)cc2)nc(N)c1Br` is recorded as 80 µg/mL (solvent-shift UV; FaSSIF with 0.05% PVP-VA).
`C=CC(=O)NC1CCN(c2ncc3ncnc(Nc4ccc(Oc5ccc6c(c5)ncn6C)c(C)c4)c3n2)CC1` has a maximum bioaccessibility of 26 ± 2.7 % recovery (tiny-TIM gastrointestinal model; 30 mg, fasted state).
`CC12CC3(C)CC(C(=O)O)(C1)CC(C(=O)O)(C2)C3` has a maximum haemolysis of 2.8% (sheep erythrocytes; 1 h, pH 7.5).
`CC[C@H](C)[C@@H]1NC(=O)[C@H](CCCNC(=N)N)NC(=O)[C@H](CC(=O)O)NC(=O)[C@H](CC(C)C)NC(=O)[C@H](CCCCN)NC(=O)[C@H](CC(C)C)NC(=O)CNC(=O)[C@H](Cc2ccccc2)NC(=O)[C@@H](NC(=O)CNC(=O)[C@H](CCCCN)NC(=O)[C@H](CO)NC(=O)[C@H](CC(C)C)NC(=O)CNC(=O)[C@H](CCCCN)NC(=O)[C@H](CCCCN)NC(=O)[C@H](CC(N)=O)NC(=O)[C@H](C)NC(=O)CNC(=O)[C@H](CCCCN)NC(=O)[C@H](Cc2ccc(O)cc2)NC(=O)[C@H](CCCCN)NC(=O)[C@H](CCCNC(=N)N)NC(=O)[C@H](C)NC(=O)[C@H](CC(N)=O)NC(=O)[C@@H]2CCCN2C(=O)[C@H](Cc2c[nH]cn2)NC(=O)[C@H](CCC(=O)O)NC(=O)[C@H](CCC(N)=O)NC(=O)CNC(=O)[C@@H]2CCCN2)CSSC[C@@H](C(=O)O)NC(=O)CNC(=O)[C@H](CC(C)C)NC(=O)CNC(=O)[C@H](CO)NC(=O)[C@H](CCSC)NC(=O)[C@H](CO)NC(=O)CNC1=O` — result for “maximum SBP decrease”: -7 mmHg (human; concentration not given).
For `CCOc1cccc(C(=O)Nc2ccc(-c3nc4ccccc4[nH]3)cc2)c1`, the maximum haemolysis was 40.6% (sheep erythrocytes; 1 h, pH 7.5).
`Clc1ccc(Nc2nc(Cl)nc(NC3CCCCC3)n2)cc1` has a labelling of 10.4% (UCHL1; covalent, intact protein LC-MS; 12.5 µM).
